# Assay results from different studies.
# Numbered parts are unrelated; each lists some results of a single study. Substitutions count along the parent as printed.

# Study 1 — technique: universal PBM; form: double-stranded DNA, one strand shown; sample: in vitro; concentration: not given; reading: higher = stronger binding
# Target: Sal-like protein 4, full length isoform B (SALL4, Homo sapiens, UniProt Q9UJQ4-2, residues 1-616)
# Notes: 8-mer, flanks averaged, mean of replicates
Oligonucleotide,E-score
ACTAATGC,0.0677
CCATACCA,0.0361
CCAACTTA,0.0328
AGAAAGCG,-0.134
GAGCGACC,-0.2
AATAGGGC,-0.0186
AGTACTGG,-0.192
ACCCTCAC,-0.134
CGTTAGAG,-0.0568
CCCTGGAC,-0.297
CAGTTAAA,0.118
TAGGCACA,-0.0177
ACCAGAAT,0.0704
ACATAGAC,0.147
TGCCTGAA,-0.0126
AGTCGGGG,-0.111
ACTAAGCA,0.00422
ACGCGCGT,0.125
TCTAATCA,0.141
CATTTTGG,0.19
CTGTTCAA,0.0157
GCGACAAA,0.00533
CCGCGAGG,-0.281
ACCTAACA,0.0413
GATAACAC,0.0984

# Study 2 — technique: protein binding microarray; form: double-stranded DNA, one strand shown; sample: in vitro; concentration: not given; baseline: not given; reading: higher = stronger binding
# Target: Histone acetyltransferase KAT6A, both winged helices, GST fusion (KAT6A, Homo sapiens, UniProt Q92794, residues 1-181)
# Notes: 8-mer, flanks averaged, mean of 2 arrays, mostly near background
# Target sequence (chain): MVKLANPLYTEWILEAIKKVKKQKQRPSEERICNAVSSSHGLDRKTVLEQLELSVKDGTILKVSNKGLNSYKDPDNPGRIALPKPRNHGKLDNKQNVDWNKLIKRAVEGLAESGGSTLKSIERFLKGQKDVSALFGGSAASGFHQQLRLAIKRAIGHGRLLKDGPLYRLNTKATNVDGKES
Oligonucleotide,E-score
GCCTTCCA,-0.21
ATTCGGGA,0.0186
TCTAATAA,-0.00641
AAGGTTGC,0.0109
CACAAAGA,-0.151
GGATCGCC,0.0155
CGTTAAAC,0.0708
CCTGGTTA,-0.211
AGAAAACT,-0.292
GAGTGGAC,-0.0919
AATCCTGC,-0.0971
CGAGCCGC,0.322
CAAACACA,-0.14
CTCCTGAC,-0.0895
ATCTGAAC,-0.0296
ACTTCAAG,-0.123
CCCACCCA,-0.244
AGGTTGGA,-0.0224
ATGCACAA,-0.176
ACCGCCGG,0.34

# Study 3 — target: CCNA1, cyclin fold, Cln2 fusion (human); technique: yeast growth competition, sequencing; sample: yeast; notes: weak parent motif; baseline: not given; reading: higher = stronger binding
# Starting sequence: TICRR docking peptide (human); TKVRRNLFNQELL
Variant,normalised enrichment score
V3A,0.00737
L12A,0.172
N6A,0.663
F8A,0.0776
T1A,0.426
R4A,0.125
F8L,0.711
R5A,0.387
R5A L7A,0.0627
R5K F8L,0.321

# Study 4 — technique: RNA Bind-n-Seq; form: RNA; sample: in vitro; concentration: 365 nM; baseline: no-protein control; reading: higher = stronger binding
# Target: RNA binding protein fox-1 homolog 2, RRM domain, GST-SBP tag (RBFOX2, Homo sapiens, UniProt O43251-10, residues 100-194)
# Notes: natural RNA segment, single round, ends assumed
# All sequences stand within: GGGAGUUCUACAGUCCGACGAUC … UGGAAUUCUCGGGUGCCAA
# Construct (chain): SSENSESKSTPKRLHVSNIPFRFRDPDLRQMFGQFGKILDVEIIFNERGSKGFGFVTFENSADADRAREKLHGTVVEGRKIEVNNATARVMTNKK
Oligonucleotide,RBNS enrichment (R)
UAGAACUCACUGGCCCAGUGGUGUUCUCACUCCUACCCCACCCACCCCCUGCCUGUCCCCAAAUUGAAGAUCCUUCCUUGCCUGUGGCUUGAUGCGGGGCGGGUAAAGGG,0.558
GUAUUGAAUUUAAGAAGACAGACUAGCACAAAACACAGAAUUCGUGUUAACCAAAGGAGGCAUUGAUUUCAGUUUUAAGGCUACUCAGUGUUGUGUGUCCAGGGAAAUUC,0.386
CUCCACACCCUCUGCCGACUACCACGGUGUGGAUUCAGCUCCCAAAUGACAAACCCAGCCCUUCCCAGUAUACUUGAAAAGCUUUCUUGUUAAAAUAAAAGGUGUCACUG,0.366
CUAUAAAGAUGACACAGAAAUUGGAACCAACAAAACUGCUAACACCUUGUUGACUGUUCUGAGUUGAUAUAAGCAGUGGUAAUAAUGUGUGUACUCCUAAAUCUUUAUGC,0.318
UCUCCGUGUCUCAGUUAUGGUCUGCUCUCUCUAUGCCUGGAGCUACUGAUCCAAACACAAGACGGUCAGAGGAGCCCUGGCAUCCUUCACUCUUAUAGGCCUACAUGCAG,0.425
UCGAGGAACUCCUGGAGGGUUUGAGCGUCUGGAAACUCUCUGCUCUGACCCGAGGAAGCACCCUCCUGACGCCGCCUUCCUCCGGUUAUUGAAAGGACGCCUCAGAAAUG,0.311
CUUAGCAGACGGCAGUCAAUCCACAUUCAAUAAAAAGUACAUAAUGCCCAUUUUUAUAUGCACGUUUUUAAACUUCCAAGUUCUGAAAAUUGUUUACUGGUUAUCUCUAU,0.994
GAAACCAAGAGCACAAUUCCCAUUGAGAGAAAGAUCUCUGUGCUGUAAACUAAAACAAAUUGUGCAUUCCUUCCGGGGCCAUCGUCUUUGUUUUCUUUUUUGUCUUGAAU,0.646

# Study 5 — technique: EMSA with sequencing; form: double-stranded DNA, one strand shown; sample: in vitro; concentration: 10 and 20 nM; baseline: negative control set to 0; reading: higher = stronger binding
# Target: Hepatocyte nuclear factor 3-alpha (Foxa1, Mus musculus, UniProt P35582, residues 1-468, full length assumed)
# Notes: whole designed probe, mean of two concentrations, ends assumed
# All sequences stand within: GTGAGCGGTGCCCATTGATGGGGAAC … TTTCACTGGGATCGTGGGGAC
# Target sequence (chain): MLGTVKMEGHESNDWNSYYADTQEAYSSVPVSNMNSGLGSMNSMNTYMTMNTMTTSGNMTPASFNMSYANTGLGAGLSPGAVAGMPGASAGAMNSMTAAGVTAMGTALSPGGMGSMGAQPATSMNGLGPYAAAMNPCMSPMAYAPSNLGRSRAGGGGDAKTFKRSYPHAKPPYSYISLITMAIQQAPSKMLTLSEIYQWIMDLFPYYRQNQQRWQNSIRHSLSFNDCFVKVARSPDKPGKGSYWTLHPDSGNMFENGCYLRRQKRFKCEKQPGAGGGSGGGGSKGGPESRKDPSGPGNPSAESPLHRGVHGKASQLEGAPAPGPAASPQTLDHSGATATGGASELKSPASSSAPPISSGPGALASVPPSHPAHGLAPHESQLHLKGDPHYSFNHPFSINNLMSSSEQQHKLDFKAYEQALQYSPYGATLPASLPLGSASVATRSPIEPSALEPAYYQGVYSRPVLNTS
Oligonucleotide,normalised bound fraction
CCCTCATCCTGGGTGTCGGGGTGGGAGGTGTTCTCATCATGAATGGGAGGCGTACCCAGATCCAGCTCTGCCTTTTTTTAACCAAACCACATTTGTTTACACTCGTGACTCACCAGCTGTTAATCGACATAGCAAGATATGATACATGCCAGGAGAGAAAAAGAAAGTGCTGATGGAAAAATAATCTCATTAG,0.258 ratio
ATCTTCCCCCTCTTCCTTGCCCCACCAGCTCACCTTCCCGGGTTATTTGCAGATAGGAAAATAAATAAAGCCGGCATTCGTTAACCCTCTTCACGCGCATACTGCACATTGGTCTGGATCTAACATGGTCCTTTGGCGACGCCAGGCTCCGGGAGAGCAAAGCACCGTGTCAGGGCCATGATCCGGGGTGGCC,0.344 ratio
TCTCTGCATTCCAAGCCGTTGCACCTGAACTCCCAACAATAACAGGGCGCTCTGAGACCTACCAGATGTACACAATGAATATCTTTATTTCCTAAATTATTTTTAGGTTTATGGGATTGTCCTGCTCCCTTTGAAGAGCAGGGATCATTATCCCCATTTTACAGATGGGGAAACAGAGACCTGGAGAAACATG,0.327 ratio
TTTTAACTAGTATGTTTTAAACTTTGGTATTGTATTTCCCACTAAGAGCCCTTCTTTTTTCAAAATAATATTTATTCTACCAGATGAACTATGTAATCTTAAAGCAATATGGACAAGCATTTATTCTTTTGTTTTTAATTAACTTGCCCACATGATTTCAAATTTCATTAGAATTTATATTATAGTATTTCAA,0.126 ratio
TCCACAGTAGAAACGAAGGAGATGACAGATACCCCGGCACCAAAACTGACACCAGGTTTTTGTTGCTTCTTCCACTATATAATGGAGAAGTTCTGTTTACTCTAGATGTGCATCTACTGTTAACATTGGCTTAAGGAAACCCAAGAAACTGAATCACATCAAAGGTATGTCAGAGGTATGTGAACCAGAGCAA,0.255 ratio

# Excerpt of the above (study 1):
Oligonucleotide,E-score
CGTTAGAG,-0.0568
CCCTGGAC,-0.297
CAGTTAAA,0.118
TAGGCACA,-0.0177
ACCAGAAT,0.0704
ACATAGAC,0.147
TGCCTGAA,-0.0126
